Experimental data collected from several papers.
Lines come from different studies, so protocols differ. ± marks the error that the study gave.

| Structure (SMILES) | assay | system | conditions | half-life |
| --- | --- | --- | --- | --- |
| O=C(O)c1ccc(-c2nc(-c3ccccc3Cl)c3sccn23)cc1 |  | mouse liver microsomes | 1 µM | 0.503 h |
| CCCC/C=C/C(=O)N[C@@H](Cc1cc(F)cc(F)c1)C(=O)N[C@H]1COC(=O)[C@@H]2CCCN2C(=O)[C@H](C)NC(=O)[C@@H]2C[C@@H](C(C)C)CCN2C(=O)[C@@H]2CCCN2C1=O | H-D exchange, 1H NMR, measured: alanine amide hydrogen | CD3OD | 25 °C | 3.18 h |
| O=c1[nH]c2ccccc2c(=O)o1 | reactivity with N-α-acetyl-lysine, HPLC-MS |  | pH 10.2 | < 0.0167 h |
| C=C1NC(=O)CNC(=O)[C@H](CC(N)=O)NC(=O)[C@H](CC(C)C)NC(=O)CNC(=O)[C@H](CCCCN)NC(=O)[C@H](C)NC(=O)[C@H]([C@@H](C)CC)NC(=O)[C@H](CO)NC(=O)[C@H](Cc2c[nH]c3ccccc23)NC(=O)[C@H](C)NC(=O)[C@H](Cc2c[nH]c3ccccc23)NC(=O)c2ccc(-c3nc(C(=O)OC)cs3)nc2-c2csc1n2 | LC-MS | human serum | pH 7.6, 37 °C | 14 h |
| CCOC(=O)Nc1ccc2c(c1)CN1C(=S)N(c3ccc(C#N)c(C(F)(F)F)c3)C(=O)C1C2 (stereo not shown) |  |  | intravenous, 5 mg/kg | 14.1 ± 3.53 h |
| CSCC[C@H](NC(=O)[C@H](CO)NC(=O)[C@H](CCC(N)=O)NC(=O)[C@H](CCC(=O)O)NC(=O)[C@H](CCC(=O)O)NC(=O)CNC(=O)[C@H](CSSC[C@H](NC(=O)[C@H](CCCNC(=N)N)NC(=O)[C@@H]1CCCN1C(=O)[C@H](Cc1c[nH]cn1)NC(=O)[C@H](Cc1c[nH]c2ccccc12)NC(=O)[C@H](CCCCN)NC(=O)[C@H](Cc1ccccc1)NC(=O)[C@H](CC(C)C)NC(=O)CN)C(=O)NCC(=O)N[C@@H](CCC(=O)O)C(=O)N[C@@H](CCC(=O)O)C(=O)N[C@@H](CCC(N)=O)C(=O)N[C@@H](CO)C(=O)N[C@@H](CCSC)C(=O)N[C@@H](Cc1c[nH]c2ccccc12)C(=O)N[C@H](C(=O)O)[C@@H](C)O)NC(=O)[C@H](CCCNC(=N)N)NC(=O)[C@@H]1CCCN1C(=O)[C@H](Cc1c[nH]cn1)NC(=O)[C@H](Cc1c[nH]c2ccccc12)NC(=O)[C@H](CCCCN)NC(=O)[C@H](Cc1ccccc1)NC(=O)[C@H](CC(C)C)NC(=O)CN)C(=O)N[C@@H](Cc1c[nH]c2ccccc12)C(=O)N[C@H](C(=O)O)[C@@H](C)O | HPLC | plasma | 37 °C | 1.86 h |
| CC(C)C(=O)OC[C@H]1O[C@@](C#N)(n2ccc(N)nc2=O)[C@H](O)[C@@H]1O | plasma stability | mouse plasma | conversion to CNC metabolite | < 0.0833 h |
| C[C@@H](NC(=O)[C@@H](N)Cc1ccc(O)cc1)C(=O)NCC(=O)N[C@@H](Cc1ccc(F)cc1)C(=O)N1CCN(C(=O)[C@H](Cc2ccc(F)cc2)NC(=O)CNC(=O)[C@@H](C)NC(=O)[C@@H](N)Cc2ccc(O)cc2)CC1 | LC-MS | human plasma | 5 µM, 37 °C | > 1 h |
| N#Cc1ccccn1 |  |  | pH 7.4 | 833 h |
| CC[C@H](C)[C@H](NC(=O)[C@@H](Cc1ccccc1)NC)C(=O)N[C@@H](CO)C(=O)N[C@H](CCCNC(=N)N)C(=O)N[C@@H](C(=O)N[C@H](C(=O)OC[C@H](N)C(=O)N[C@H]1C(=O)N[C@@H](C)C(=O)N[C@@H](C2CCCCC2)C(=O)N[C@@H]([C@@H](C)CC)C(=O)O[C@H]1C)[C@@H](C)CC)[C@@H](C)CC | conversion to teixobactin | phosphate buffer | pH 7.4, room temperature | 0.733 h |
| C=C1NC(=O)C(=C)NC(=O)[C@H](CCCCN)NC(=O)[C@H](CC(C)C)NC(=O)[C@H]([C@@H](C)O)NC(=O)[C@H](CCCCN)NC(=O)[C@H](Cc2ccc(O)cc2)NC(=O)[C@H]([C@@H](C)CC)NC(=O)[C@H](Cc2ccccc2)NC(=O)CNC(=O)[C@H](Cc2c[nH]c3ccccc23)NC(=O)c2ccc(-c3nc(C(=O)OC)cs3)nc2-c2csc(n2)C(=C)NC(=O)CNC1=O | LC-MS | human serum | pH 7.6, 37 °C | 1.6 ± 0.1 h |
| CC[C@H](C)[C@@H]1NC(=O)[C@H](Cc2ccc(O)cc2)NC(=O)[C@@H](N)CSCSC[C@@H](C(=O)N2CCC[C@H]2C(=O)N[C@@H](CC(C)C)C(=O)NCC(N)=O)NC(=O)[C@H](CC(N)=O)NC(=O)[C@H](CCC(N)=O)NC1=O |  | phosphate buffer | 0.1 mg/mL, pH 4.5, 55 °C | 778 h |
| CC[C@H](C)[C@@H]1NC(=O)[C@H](CO)NC(=O)[C@H](CCCCN)NC(=O)[C@@H]2CSSC[C@@H](C(=O)N[C@@H](Cc3ccc(O)cc3)C(N)=O)NC(=O)[C@H](CCCCN)NC(=O)[C@@H]3CSSC[C@H](NC(=O)[C@H](CCCNC(=N)N)NC(=O)[C@H](CC(C)C)NC(=O)[C@H](CC(=O)O)NC(=O)[C@H](CC(=O)O)NC(=O)[C@H](CCC(=O)O)NC(=O)[C@H](CC(N)=O)NC(=O)[C@H](Cc4c[nH]c5ccccc45)NC(=O)[C@@H]4CCCN4C(=O)CNC(=O)[C@H](CC(N)=O)NC(=O)[C@@H](NC(=O)CNC(=O)[C@H](Cc4ccccc4)NC(=O)CN)CSSC[C@H](NC(=O)[C@H](Cc4ccc(O)cc4)NC(=O)CNC(=O)CNC(=O)[C@H](CCCCN)NC(=O)[C@H](Cc4ccc(O)cc4)NC(=O)CNC(=O)[C@H](CCCCN)NC1=O)C(=O)N[C@@H](C)C(=O)N[C@@H](CCCCN)C(=O)NCC(=O)NCC(=O)N[C@@H](Cc1ccccc1)C(=O)N[C@@H](C(C)C)C(=O)N3)C(=O)N[C@@H](Cc1c[nH]cn1)C(=O)N[C@@H](CC(N)=O)C(=O)N[C@@H](Cc1c[nH]cn1)C(=O)N2 |  | pronase | 13.2 µM, pH 7.2, room temperature | 1.9 h |
| CSCC[C@@H]1NC(=O)[C@H](Cc2ccccc2)NC(=O)CNC(=O)[C@H](NC(=O)[C@@H](N)Cc2ccc(O)cc2)CSSC[C@@H](C(=O)N[C@@H](Cc2c[nH]c3ccccc23)C(=O)NCc2cc(C(F)(F)F)cc(C(F)(F)F)c2)NC(=O)[C@@H]2CCCN2C1=O |  | rat plasma | 50 µg/mL, 37 °C | > 6 h |
| CC[C@H](C)[C@@H]1NC(=O)[C@H](CO)NC(=O)[C@H](CCCCN)NC(=O)[C@@H]2CSSC[C@@H](C(=O)N[C@@H](Cc3ccc(O)cc3)C(N)=O)NC(=O)[C@H](CCCCN)NC(=O)[C@@H]3CSSC[C@H](NC(=O)[C@H](CCCNC(=N)N)NC(=O)[C@H](CC(C)C)NC(=O)[C@H](CC(=O)O)NC(=O)[C@H](CC(=O)O)NC(=O)[C@H](CCC(=O)O)NC(=O)[C@H](CC(N)=O)NC(=O)[C@H](Cc4c[nH]c5ccccc45)NC(=O)C(C)(CC)NC(=O)CNC(=O)[C@H](CC(N)=O)NC(=O)[C@@H](NC(=O)CNC(=O)[C@H](Cc4ccccc4)NC(=O)CN)CSSC[C@H](NC(=O)[C@H](Cc4ccc(O)cc4)NC(=O)CNC(=O)CNC(=O)[C@H](CCCCN)NC(=O)[C@H](Cc4ccc(O)cc4)NC(=O)[C@H]4CCCN4C(=O)[C@@H]4CCCN4C1=O)C(=O)N[C@@H](C)C(=O)N[C@@H](CCCCN)C(=O)N1CCC[C@@H]1C(=O)NCC(=O)N[C@@H](Cc1ccccc1)C(=O)N[C@@H](C(C)C)C(=O)N3)C(=O)N[C@@H](Cc1c[nH]cn1)C(=O)N[C@@H](CC(N)=O)C(=O)N[C@@H](Cc1c[nH]cn1)C(=O)N2 (stereo partly shown) | HPLC | trypsin digestion | 13.2 µM, pH 8.5, room temperature, together with: trypsin 0.9 µM | 7.7 h |
| Cc1cc(C)n(-c2nc(-c3ccccc3)cc(=O)n2CC(=O)Nc2cccc([N+](=O)[O-])c2)n1 |  | human liver microsomes | pH 7.4, together with: NADPH | 0.917 ± 0.0983 h |

Excerpt of the above:
| Structure (SMILES) | assay | system | conditions | half-life |
| --- | --- | --- | --- | --- |
| N#Cc1ccccn1 |  |  | pH 7.4 | 833 h |
